Experimental data gathered from unrelated publications.
Protocols differ between the studies behind these lines. “And” joins repeats or separate records; there may be more than shown. ± marks the error that the study gave.
Metalloproteinase inhibitor 3: Metalloproteinase inhibitor 3 (Homo sapiens, UniProt P35625)
ADORA1: Adenosine receptor A1 (ADORA1, Homo sapiens, UniProt P30542)
EPRS1 prolyl-tRNA synthetase domain: Bifunctional glutamate/proline--tRNA ligase, prolyl-tRNA synthetase domain (EPRS1, Homo sapiens, UniProt P07814)
ABO G235S/G268A/L266M/R176G: Histo-blood group ABO system transferase (ABO, Homo sapiens, UniProt P16442, G235S/G268A/L266M/R176G)
RIPK1: Receptor-interacting serine/threonine-protein kinase 1 (RIPK1, Homo sapiens, UniProt Q13546)

With `CS[C@@H]1O[C@H](COS(=O)(=O)O)[C@@H](OS(=O)(=O)O)[C@H](O[C@@H]2O[C@H](C(=O)O)[C@@H](O[C@@H]3O[C@H](COS(=O)(=O)O)[C@@H](OS(=O)(=O)O)[C@H](O[C@@H]4O[C@H](C(=O)O)[C@@H](OS(=O)(=O)O)[C@H](OS(=O)(=O)O)[C@H]4OS(=O)(=O)O)[C@H]3NC(C)=O)[C@H](OS(=O)(=O)O)[C@H]2OS(=O)(=O)O)[C@H]1NC(C)=O` the Kd was 0.86 µM (Metalloproteinase inhibitor 3; ligand displacement, FP).
The Kd of `CSCC[C@H](NC(=O)[C@H](CC(C)C)NC(=O)[C@H](CCCCNC(C)=O)NC(=O)[C@H](CCCCN)NC(=O)[C@H](Cc1c[nH]cn1)NC(=O)[C@H](CCCNC(=N)N)NC(=O)[C@H](CO)NC(=O)[C@@H](NC(=O)[C@H](CO)NC(=O)[C@H](CCC(N)=O)NC(=O)CNC(=O)[C@H](CCCCN)NC(=O)[C@@H](N)CCCCN)[C@@H](C)O)C(=O)N[C@@H](Cc1ccccc1)C(=O)N[C@@H](CCCCN)C(=O)N[C@H](C(=O)N[C@@H](CCC(=O)O)C(=O)NCC(=O)O)[C@@H](C)O` is reported as 2.7 µM (NAD-dependent protein deacetylase (cobB, Thermotoga maritima, UniProt Q9WYW0); acetylated p53 peptide binding, intrinsic tyrosine fluorescence; pH 9.2, target 0.4 µM).
The Kd of `CN(C)CCNC(=O)c1cccc2c(NCCCCc3c(N)nc(N)nc3N)c3ccccc3nc12` is reported as 2270 ± 360 µM (RNA with A–A mismatch; binding, ITC; 25 °C, 2).
With `CCCn1c(=O)c2[nH]c(-c3ccc(OCC(=O)NCCNS(=O)(=O)c4cccc5c(N(C)C)cccc45)cc3)nc2n(CCC)c1=O` the Kd was 0.049 µM (ADORA1; CRE reporter gene, antagonist; CHO-A1; Gs-mediated enhancement, together with: NECA and forskolin).
For `COCCOCCOCCOC(=O)c1cnc2cc(-c3c(C)noc3C)c(OC)cc2c1N[C@H](C)c1ccccn1`, Kd read “no binding” (Bromodomain factor 2 (Trypanosoma brucei brucei, UniProt Q38AM1); ITC; 15 °C).
`Cc1cc(N2CC[C@](C#N)(C3(C)CC3)C2=O)cc(C(=O)NCc2cc(F)cc(-c3cnn(C)c3)c2)n1` gave a Kd of 1.79 µM and 1.16 µM (EPRS1 prolyl-tRNA synthetase domain; binding, microscale thermophoresis).
`CCc1nc2cc3ccccc3cc2cc1C(=O)N1CCC[C@H]1C(=O)N[C@@H](CCC/C=C/CCC[C@H](NC(=O)[C@@H]1CCCN1C(=O)c1cc2cc3ccccc3cc2nc1CC)C(=O)N[C@@H](CCCCN)C(=O)NCCCN)C(=O)N[C@@H](CCCCN)C(=O)NCCCN` has a Kd of 0.0736 ± 0.0008 µM ((CCUG)10 RNA; fluorescence titration).
`CNc1ccccc1C(=O)O[C@H]1C[C@H](n2cnc3c(N)ncnc32)O[C@@H]1COP(=O)(O)OP(=O)(O)O` gave a Kd of 6.75 ± 0.54 µM (Unconventional myosin-Va (Gallus gallus, UniProt Q02440, D297C/G292C/I296C/S293C/V295G); stopped-flow FRET; 4 °C, together with: EDTA 4 mM).
`OC(Cc1cc(-c2ccc(C(O)C(F)(F)F)s2)sc1-c1ccc(-c2sc(-c3ccc(C(O)C(F)(F)F)s3)cc2CC(O)C(F)(F)F)s1)C(F)(F)F` (stereo not drawn) has a Kd of 0.07 ± 0.03 µM (Microtubule-associated protein tau, 0N4R isoform, aggregated (MAPT, Homo sapiens, UniProt P10636); binding, fluorescence; 20% sucrose tau fraction).
With `CCCn1c(=O)c2[nH]c(-c3ccc(OCC(=O)NCCNC(=O)CCCCCNC(=O)COc4ccc(/C=C/C5=[N+]6C(=Cc7ccc(-c8cccs8)n7[B-]6(F)F)C=C5)cc4)cc3)nc2n(CCC)c1=O` the Kd was 0.115 µM (ADORA1; CRE reporter gene, antagonist; CHO-A1; Gs-mediated enhancement, together with: NECA and forskolin).
With `Cc1cc(N2CCC(CO)(C3CC3)C2=O)cc(C(=O)NCc2cc(F)cc(-c3cnn(C)c3)c2)n1` (stereo not drawn) the Kd was 2.58 µM and 1.99 µM (EPRS1 prolyl-tRNA synthetase domain; binding, microscale thermophoresis).
The Kd of `N#Cc1c(Cl)ccc(Oc2ccc(Cl)cc2Cl)c1O` is reported as 0.0099 ± 0.001 µM (Enoyl-acyl carrier reductase, with NAD+ (ENR, Toxoplasma gondii, UniProt Q6UCJ9); thermal shift; together with: NAD+ 100 µM).
`C[n+]1ccc(/C=N/NC(=O)c2cncc(C(=O)N/N=C/c3cc[n+](C)c4ccccc34)n2)c2ccccc21` gave a Kd of < 0.001 µM (telomeric antiparallel G4 DNA; binding, native ESI-MS; 100 mM trimethylammonium acetate; 1 mM KCl).
`CN(C)c1cc2ccccc2c(N)n1`: Kd “not detected” (CUGBP Elav-like family member 1, RRM1/2 domains (CELF1, Homo sapiens, UniProt Q92879, K117A); isothermal titration calorimetry; 25 °C).
With `N=C(N)NCCC[C@H](NC(=O)[C@H](CS)NC(=O)[C@H](Cc1ccc(O)cc1)NC(=O)[C@H](Cc1c[nH]c2ccccc12)NC(=O)[C@H](CCCNC(=N)N)NC(=O)[C@H](Cc1c[nH]c2ccccc12)NC(=O)[C@H](Cc1c[nH]cn1)NC(=O)CNC(=O)CN)C(=O)NCC(=O)NCC(=O)N[C@@H](CCCCN)C(N)=O` the Kd was 7 ± 0.6 µM (HIV RRE IB RNA; fluorescein-labelled RNA titration; 1 mM TCEP).
`C=CCCCCCCO[C@@H]1O[C@H](CO)[C@@H](O)[C@H](O[C@@H]2O[C@H](CO)[C@H](O)[C@H](O)[C@H]2O[C@@H]2O[C@@H](C)[C@@H](O)[C@@H](O)[C@@H]2O)[C@H]1NC(C)=O` gave a Kd of 3200 ± 100 µM (ABO G235S/G268A/L266M/R176G; methyl-TROSY NMR titration lineshape analysis; apo enzyme).
`CC(=O)N[C@@H]1[C@@H](O[C@@H]2O[C@H](C(=O)O)[C@@H](O[C@@H]3O[C@H](CO)[C@@H](O)[C@H](O[C@@H]4O[C@H](C(=O)O)[C@@H](OS(=O)(=O)O)[C@H](OS(=O)(=O)O)[C@H]4OS(=O)(=O)O)[C@H]3NC(C)=O)[C@H](OS(=O)(=O)O)[C@H]2OS(=O)(=O)O)[C@H](O)[C@@H](CO)O[C@H]1N=[N+]=[N-]` gave a Kd of 33.5 µM (Bone morphogenetic protein 2 (Homo sapiens, UniProt P12643); ligand displacement, FP).
With `C[C@H]1Cc2cc(-c3ccnc4ncnn34)ccc2O1` the Kd was 5 µM (WD repeat-containing protein 55 (WDR55, Homo sapiens, UniProt Q9H6Y2)).
With `CC(C)C[C@H](NC(=O)[C@H](CC(C)C)NC(=O)CNC(=O)[C@@H](NC(=O)[C@H](CC(=O)O)NC(=O)[C@H](CC(=O)O)NC(=O)[C@H](Cc1ccc(O)cc1)NC(=O)[C@H](Cc1ccc(O)cc1)NC(=O)[C@H](CO)NC(=O)[C@@H](NC(=O)[C@@H](NC(=O)CNC(=O)[C@H](Cc1ccccc1)NC(=O)[C@@H](NC(=O)[C@H](CCC(=O)O)NC(=O)[C@@H](N)C(C)C)[C@@H](C)O)[C@@H](C)O)[C@@H](C)O)C(C)C)C(=O)O` the Kd was 140 µM (Eotaxin (CCL11, Homo sapiens, UniProt P51671); binding, NMR; pH 6.5).
For `COc1cc(-c2nc3ccc(C(=O)NCCCN(C)C)cc3n2C2CCC2)cc(OC)c1OC`, the Kd was 0.541 µM (Bone morphogenetic protein receptor type-1A (BMPR1A, Homo sapiens, UniProt P36894); binding, TR-FRET).
`COc1ccc(-c2coc3cc(O[C@@H]4O[C@H](CO)[C@@H](O)[C@H](O)[C@H]4O)ccc3c2=O)cc1O` has a Kd of 0.000792 µM (TAS1R2 (Homo sapiens, UniProt Q8TE23); binding; 0.5% DMSO).
The Kd of `Nc1ncnc2c1ncn2[C@@H]1O[C@@H](CN(CCCNc2ncnc3c2ncn3[C@H]2O[C@@H](CO)[C@@H](O)[C@H]2O)CC[C@H](N)C(=O)O)[C@@H](O)[C@H]1O` is reported as 30 ± 4 µM (Ribosomal RNA large subunit methyltransferase J (rlmJ, Escherichia coli, UniProt P37634)).
`CCCn1c(=O)c2[nH]c(-c3ccc(OCC(=O)NCCNC(=O)CCCCCCCNS(=O)(=O)c4cccc5c(N(C)C)cccc45)cc3)nc2n(CCC)c1=O` has a Kd of 0.0955 µM (ADORA1; CRE reporter gene, antagonist; CHO-A1; Gs response, PTX-pretreated overnight, together with: NECA and forskolin).
The Kd of `CC1=CC(C)=[N+]2C1=Cc1ccc(CCC(=O)NCCOCCOCCOCCOCC(=O)N[C@H](C(=O)N3C[C@H](O)C[C@H]3C(=O)NCc3ccc(-c4scnc4C)cc3)C(C)(C)C)n1[B-]2(F)F` is reported as 0.101 µM (von Hippel-Lindau disease tumor suppressor, with elongin B/C (VHL, Homo sapiens, UniProt P40337); binding, fluorescence polarization; 90 min, total binding).
`CCCCCCCCN(CCC(=O)Nc1ccccc1)C(=O)c1ccccn1` gave a Kd of 7.2 µM (Albumin (ALB, Homo sapiens, UniProt P02768); binding, immobilised HSA beads; PBS; 12 min, pH 7.4).
For `Cc1ccc(Oc2nc3cc(-c4ccc5c(ccn5C)c4)c(Cl)cc3[nH]2)cc1C(=O)O`, the Kd was 51 µM (AMP-activated protein kinase (AMPK) alpha-1/beta-1/gamma-1, beta1 residues 185–270 (PRKAG1/PRKAA1/PRKAB1, Homo sapiens, UniProt P54619+Q13131+Q9Y478); binding, circular dichroism titration; ΔCBM complex).
The Kd of `COC(=O)c1c(Oc2ccc(F)c(NC(=O)Cc3cccc(C(F)(F)F)c3)c2)ccc2nc(NC(=O)C3CC3)sc12` is reported as 0.34 µM (RIPK1; binding, competition with immobilised ligand).
For `CC(=O)N[C@@H]1[C@@H](O[C@@H]2O[C@H](C(=O)O)[C@@H](O[C@@H]3O[C@H](COS(=O)(=O)O)[C@@H](OS(=O)(=O)O)[C@H](O[C@@H]4O[C@H](C(=O)O)[C@@H](OS(=O)(=O)O)[C@H](OS(=O)(=O)O)[C@H]4OS(=O)(=O)O)[C@H]3NC(C)=O)[C@H](OS(=O)(=O)O)[C@H]2OS(=O)(=O)O)[C@H](OS(=O)(=O)O)[C@@H](COS(=O)(=O)O)O[C@H]1n1ccnn1`, the Kd was 0.35 µM (Metalloproteinase inhibitor 3; ligand displacement, FP).
`O=C(Cc1cccc(C(F)(F)F)c1)Nc1cc(Oc2cc3sc(NC(=O)C4CC4)nc3cc2Cl)ccc1F` has a Kd of 0.036 µM (RIPK1; binding, competition with immobilised ligand).
With `CC(=O)N[C@H]1[C@@H](OP(=O)(O)OP(=O)(O)OC[C@H]2O[C@@H](n3ccc(=O)[nH]c3=O)[C@H](O)[C@@H]2O)O[C@H](CO)[C@@H](O)[C@@H]1O` the Kd was 3300 µM (ABO G235S/G268A/L266M/R176G; binding, NMR).
With `O=C(Cc1cccc(C(F)(F)F)c1)Nc1cc(Oc2ccc3nc(NC(=O)C4CC4)sc3c2CO)ccc1F` the Kd was 0.012 µM (RIPK1; binding, competition with immobilised ligand).
For `CCCCCCCCO[C@@H]1O[C@H](CO)[C@H](O)C[C@H]1O[C@@H]1O[C@@H](C)[C@@H](O)[C@@H](O)[C@@H]1O`, the Kd was 420 ± 8 µM (ABO G235S/G268A/L266M/R176G; methyl-TROSY NMR titration lineshape analysis; apo enzyme).
With `CC(=O)N[C@@H]1[C@@H](O[C@@H]2O[C@H](C(=O)O)[C@@H](O[C@@H]3O[C@H](COS(=O)(=O)O)[C@@H](OS(=O)(=O)O)[C@H](O[C@@H]4O[C@H](C(=O)O)[C@@H](O[C@@H]5O[C@H](COS(=O)(=O)O)[C@@H](OS(=O)(=O)O)[C@H](O[C@@H]6O[C@H](C(=O)O)[C@@H](OS(=O)(=O)O)[C@H](OS(=O)(=O)O)[C@H]6OS(=O)(=O)O)[C@H]5NC(C)=O)[C@H](OS(=O)(=O)O)[C@H]4OS(=O)(=O)O)[C@H]3NC(C)=O)[C@H](OS(=O)(=O)O)[C@H]2OS(=O)(=O)O)[C@H](OS(=O)(=O)O)[C@@H](COS(=O)(=O)O)O[C@H]1N=[N+]=[N-]` the Kd was 0.093 µM (Fibroblast growth factor 2 (Homo sapiens, UniProt P09038); ligand displacement, FP).

Some of these lines once more:
`CCc1nc2cc3ccccc3cc2cc1C(=O)N1CCC[C@H]1C(=O)N[C@@H](CCC/C=C/CCC[C@H](NC(=O)[C@@H]1CCCN1C(=O)c1cc2cc3ccccc3cc2nc1CC)C(=O)N[C@@H](CCCCN)C(=O)NCCCN)C(=O)N[C@@H](CCCCN)C(=O)NCCCN` has a Kd of 0.0736 ± 0.0008 µM ((CCUG)10 RNA; fluorescence titration).
`CC(=O)N[C@@H]1[C@@H](O[C@@H]2O[C@H](C(=O)O)[C@@H](O[C@@H]3O[C@H](CO)[C@@H](O)[C@H](O[C@@H]4O[C@H](C(=O)O)[C@@H](OS(=O)(=O)O)[C@H](OS(=O)(=O)O)[C@H]4OS(=O)(=O)O)[C@H]3NC(C)=O)[C@H](OS(=O)(=O)O)[C@H]2OS(=O)(=O)O)[C@H](O)[C@@H](CO)O[C@H]1N=[N+]=[N-]` gave a Kd of 33.5 µM (Bone morphogenetic protein 2 (Homo sapiens, UniProt P12643); ligand displacement, FP).
